Experimental data gathered from unrelated publications.
Numbered parts are unrelated; each lists some results of a single study. Values joined by “and” are separate records of one study, mostly repeats; a detail may differ. Changes are numbered by the printed parent chain.
Chain of UniProt P51957 (whole entry, looked up): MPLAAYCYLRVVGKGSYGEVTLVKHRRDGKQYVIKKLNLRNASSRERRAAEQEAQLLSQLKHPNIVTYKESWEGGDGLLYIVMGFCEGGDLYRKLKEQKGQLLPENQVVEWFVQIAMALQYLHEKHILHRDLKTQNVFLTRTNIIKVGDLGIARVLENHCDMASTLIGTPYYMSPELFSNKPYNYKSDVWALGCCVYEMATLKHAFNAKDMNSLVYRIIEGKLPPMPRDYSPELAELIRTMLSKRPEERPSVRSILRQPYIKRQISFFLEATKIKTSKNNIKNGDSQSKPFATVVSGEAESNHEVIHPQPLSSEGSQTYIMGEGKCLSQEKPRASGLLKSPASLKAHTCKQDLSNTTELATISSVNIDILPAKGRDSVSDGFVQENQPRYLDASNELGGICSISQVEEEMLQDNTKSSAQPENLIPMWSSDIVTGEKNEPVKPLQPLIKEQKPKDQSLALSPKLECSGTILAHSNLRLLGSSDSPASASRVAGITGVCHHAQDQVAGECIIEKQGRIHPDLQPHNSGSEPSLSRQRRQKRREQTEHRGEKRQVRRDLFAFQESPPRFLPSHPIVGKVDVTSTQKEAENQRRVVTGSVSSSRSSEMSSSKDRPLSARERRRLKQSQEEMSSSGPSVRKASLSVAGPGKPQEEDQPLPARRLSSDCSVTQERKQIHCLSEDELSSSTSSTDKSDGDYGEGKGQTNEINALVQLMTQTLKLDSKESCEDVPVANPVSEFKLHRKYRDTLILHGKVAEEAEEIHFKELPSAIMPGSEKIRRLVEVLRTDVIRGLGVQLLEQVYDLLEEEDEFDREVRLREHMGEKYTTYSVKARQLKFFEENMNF
Chain of UniProt P29597 (whole entry, looked up): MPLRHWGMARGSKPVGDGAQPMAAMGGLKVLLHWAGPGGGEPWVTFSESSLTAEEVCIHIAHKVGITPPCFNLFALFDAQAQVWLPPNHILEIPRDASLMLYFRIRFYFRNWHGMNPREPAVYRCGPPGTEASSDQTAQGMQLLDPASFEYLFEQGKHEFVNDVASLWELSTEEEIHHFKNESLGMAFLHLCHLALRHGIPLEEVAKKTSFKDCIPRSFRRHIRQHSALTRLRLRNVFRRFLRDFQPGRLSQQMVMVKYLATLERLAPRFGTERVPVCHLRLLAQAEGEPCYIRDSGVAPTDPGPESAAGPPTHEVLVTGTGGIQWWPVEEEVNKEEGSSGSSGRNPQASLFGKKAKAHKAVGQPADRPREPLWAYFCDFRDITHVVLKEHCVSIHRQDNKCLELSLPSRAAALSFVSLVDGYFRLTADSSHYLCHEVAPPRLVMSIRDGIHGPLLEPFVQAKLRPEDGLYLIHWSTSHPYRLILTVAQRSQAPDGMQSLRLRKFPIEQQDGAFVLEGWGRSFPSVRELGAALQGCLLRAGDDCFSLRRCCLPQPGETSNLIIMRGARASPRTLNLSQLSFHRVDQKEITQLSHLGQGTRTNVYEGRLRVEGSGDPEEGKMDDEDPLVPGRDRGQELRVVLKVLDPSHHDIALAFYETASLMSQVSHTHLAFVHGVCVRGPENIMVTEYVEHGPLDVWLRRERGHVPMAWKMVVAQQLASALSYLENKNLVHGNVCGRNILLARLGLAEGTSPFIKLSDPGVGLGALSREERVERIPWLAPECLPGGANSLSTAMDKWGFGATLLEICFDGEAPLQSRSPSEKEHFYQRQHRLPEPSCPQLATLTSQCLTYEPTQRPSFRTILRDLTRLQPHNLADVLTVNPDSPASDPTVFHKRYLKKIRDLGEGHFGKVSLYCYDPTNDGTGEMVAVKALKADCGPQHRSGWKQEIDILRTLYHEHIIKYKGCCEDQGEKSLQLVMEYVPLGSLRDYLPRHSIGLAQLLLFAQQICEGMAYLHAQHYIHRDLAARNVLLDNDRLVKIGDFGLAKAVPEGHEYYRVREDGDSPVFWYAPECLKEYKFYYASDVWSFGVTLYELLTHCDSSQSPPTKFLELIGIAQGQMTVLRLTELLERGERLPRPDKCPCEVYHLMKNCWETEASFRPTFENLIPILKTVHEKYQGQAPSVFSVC
Chain of UniProt P49761 (whole entry, looked up): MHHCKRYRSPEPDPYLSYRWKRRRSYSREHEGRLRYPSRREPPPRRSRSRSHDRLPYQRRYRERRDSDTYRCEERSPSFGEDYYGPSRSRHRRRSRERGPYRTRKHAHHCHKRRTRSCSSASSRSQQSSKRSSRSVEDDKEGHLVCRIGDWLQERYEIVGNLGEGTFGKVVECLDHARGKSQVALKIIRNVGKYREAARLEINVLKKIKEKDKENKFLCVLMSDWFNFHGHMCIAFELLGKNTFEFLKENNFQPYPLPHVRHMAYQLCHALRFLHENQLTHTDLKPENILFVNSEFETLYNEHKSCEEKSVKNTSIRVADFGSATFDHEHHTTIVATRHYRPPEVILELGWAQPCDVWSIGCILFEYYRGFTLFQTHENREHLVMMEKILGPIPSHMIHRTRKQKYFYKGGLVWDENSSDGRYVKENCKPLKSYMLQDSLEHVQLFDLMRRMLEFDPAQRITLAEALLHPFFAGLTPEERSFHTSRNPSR
Chain of UniProt P9WI81 (whole entry, looked up): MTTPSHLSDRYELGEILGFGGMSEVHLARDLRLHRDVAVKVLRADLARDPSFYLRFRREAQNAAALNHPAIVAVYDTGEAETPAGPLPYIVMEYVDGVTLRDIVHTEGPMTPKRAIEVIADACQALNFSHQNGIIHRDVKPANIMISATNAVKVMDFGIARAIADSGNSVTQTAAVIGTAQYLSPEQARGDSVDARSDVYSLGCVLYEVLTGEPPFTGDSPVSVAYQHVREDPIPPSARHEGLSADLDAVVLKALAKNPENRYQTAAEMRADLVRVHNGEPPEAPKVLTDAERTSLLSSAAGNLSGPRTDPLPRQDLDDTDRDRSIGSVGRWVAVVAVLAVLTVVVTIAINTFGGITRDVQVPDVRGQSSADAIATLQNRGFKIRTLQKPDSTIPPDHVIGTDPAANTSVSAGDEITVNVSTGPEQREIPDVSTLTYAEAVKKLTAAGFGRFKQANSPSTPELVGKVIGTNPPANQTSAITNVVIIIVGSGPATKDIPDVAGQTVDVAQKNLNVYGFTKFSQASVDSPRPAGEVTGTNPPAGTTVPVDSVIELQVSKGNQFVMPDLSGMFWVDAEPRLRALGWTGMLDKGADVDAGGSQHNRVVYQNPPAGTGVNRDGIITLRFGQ
Chain of UniProt P42336 (whole entry, unmodified, looked up): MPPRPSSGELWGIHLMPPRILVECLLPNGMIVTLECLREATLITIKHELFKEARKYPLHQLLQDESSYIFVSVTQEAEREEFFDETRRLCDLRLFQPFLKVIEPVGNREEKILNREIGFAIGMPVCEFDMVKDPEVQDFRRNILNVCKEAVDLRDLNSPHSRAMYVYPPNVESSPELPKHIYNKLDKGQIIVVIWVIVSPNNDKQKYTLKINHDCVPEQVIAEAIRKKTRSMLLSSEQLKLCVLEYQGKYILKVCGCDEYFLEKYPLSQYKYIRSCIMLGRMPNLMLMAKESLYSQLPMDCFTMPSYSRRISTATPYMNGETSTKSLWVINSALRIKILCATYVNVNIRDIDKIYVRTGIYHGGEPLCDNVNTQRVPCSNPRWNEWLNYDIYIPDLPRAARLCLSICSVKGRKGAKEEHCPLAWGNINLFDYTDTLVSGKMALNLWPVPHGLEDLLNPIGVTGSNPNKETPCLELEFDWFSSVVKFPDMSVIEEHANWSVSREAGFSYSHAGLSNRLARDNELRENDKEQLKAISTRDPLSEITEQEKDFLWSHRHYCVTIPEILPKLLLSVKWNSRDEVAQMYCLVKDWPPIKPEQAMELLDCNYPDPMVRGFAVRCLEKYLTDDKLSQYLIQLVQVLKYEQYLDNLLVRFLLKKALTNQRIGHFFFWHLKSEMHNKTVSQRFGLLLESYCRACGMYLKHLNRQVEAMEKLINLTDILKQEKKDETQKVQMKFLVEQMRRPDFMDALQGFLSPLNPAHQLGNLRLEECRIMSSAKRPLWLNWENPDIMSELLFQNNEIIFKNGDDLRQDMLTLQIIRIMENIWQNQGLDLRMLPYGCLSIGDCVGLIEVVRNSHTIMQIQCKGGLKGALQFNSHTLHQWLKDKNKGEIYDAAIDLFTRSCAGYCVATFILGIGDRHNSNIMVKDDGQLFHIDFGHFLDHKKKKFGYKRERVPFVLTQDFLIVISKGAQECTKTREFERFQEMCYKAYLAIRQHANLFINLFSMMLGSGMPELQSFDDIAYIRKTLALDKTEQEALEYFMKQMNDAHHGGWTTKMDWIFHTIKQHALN
Chain of UniProt O75914 (whole entry, looked up): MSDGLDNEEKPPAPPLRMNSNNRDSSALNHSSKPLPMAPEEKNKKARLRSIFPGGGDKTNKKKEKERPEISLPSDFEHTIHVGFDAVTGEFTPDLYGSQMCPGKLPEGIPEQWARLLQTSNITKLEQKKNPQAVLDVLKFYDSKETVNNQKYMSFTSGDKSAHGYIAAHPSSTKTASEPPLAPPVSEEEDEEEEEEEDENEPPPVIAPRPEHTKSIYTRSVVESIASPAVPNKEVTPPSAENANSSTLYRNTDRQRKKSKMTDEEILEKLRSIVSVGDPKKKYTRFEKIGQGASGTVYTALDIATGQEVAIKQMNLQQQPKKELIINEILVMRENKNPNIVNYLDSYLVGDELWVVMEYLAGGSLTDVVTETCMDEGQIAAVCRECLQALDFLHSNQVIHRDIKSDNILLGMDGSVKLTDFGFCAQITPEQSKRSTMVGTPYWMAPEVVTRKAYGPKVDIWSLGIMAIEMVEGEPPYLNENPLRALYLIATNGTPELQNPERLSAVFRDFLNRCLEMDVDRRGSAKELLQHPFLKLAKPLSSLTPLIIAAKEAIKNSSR

Block 1
Target: HLA class I histocompatibility antigen, A alpha chain, allele A*80:01 (Homo sapiens, UniProt P04439)
Effect on: peptide-MHC binding
Form: peptide
Concentration: concentration not given
| Molecule | binding |
| --- | --- |
| MTQNISNDK | inactive |
| WAKLLKQKW | inactive |
| FKYDSTKPL | inactive |
| KSFSAGMFH | inactive |
| YYLIKYLHV | inactive |
| FVDVGVSAL | inactive |
| YVAGITLTH | inactive |
| CLSDEINHV | inactive |

Block 2
Target: CCND1, cyclin fold, Cln2 fusion (human)
Technique: yeast growth competition, sequencing
Matrix: yeast
Notes: strong parent motif
Relative to: not given
Direction: higher = stronger binding
Starting sequence: viral docking peptide; KGVKRKLFAEDSS; partner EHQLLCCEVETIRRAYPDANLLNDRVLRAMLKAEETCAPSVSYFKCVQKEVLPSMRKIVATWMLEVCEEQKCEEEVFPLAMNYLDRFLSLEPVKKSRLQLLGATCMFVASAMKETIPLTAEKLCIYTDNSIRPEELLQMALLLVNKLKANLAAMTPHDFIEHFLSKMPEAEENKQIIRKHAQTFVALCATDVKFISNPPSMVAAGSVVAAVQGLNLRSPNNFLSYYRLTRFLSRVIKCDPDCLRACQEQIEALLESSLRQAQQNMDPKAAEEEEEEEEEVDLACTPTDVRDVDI
| Substitution | normalised enrichment score |
| --- | --- |
| KGAKRKLFAEDSS [V3A] | 4.32 |
| KGVKRKLFALDSS [E10L] | 0.609 |
| KTVKRKLFAEDSS [G2T] | 1.67 |
| KGVKRGLFAEDSS [K6G] | 0.272 |
| KGVKRKAFAEDSS [L7A] | -0.173 |
| KGVKRQLFAEDSS [K6Q] | 1.79 |
| KGVKRKLFAEMSS [D11M] | 0.198 |
| KGVKRKLNAEDSS [F8N] | -0.00788 |

Block 3
SMILES: Cn1cncc1[C@](O)(COc1ccc(C#N)cc1-c1ccc(OC(F)(F)F)cc1)c1ccc(C#N)cc1
Concentration: 1 µM
| target | effect on | technique | remaining binding [%] |
| --- | --- | --- | --- |
| DYRK1B (Homo sapiens, UniProt Q9Y463) | cell-free assay | competition with immobilised ligand | 58 |
| GRK7 (Homo sapiens, UniProt Q8WTQ7) | cell-free assay | competition with immobilised ligand | 100 |
| PIK3CA (Homo sapiens, UniProt P42336, E542K) | cell-free assay | competition with immobilised ligand | 80 |
| CLK3 (Homo sapiens, UniProt P49761) | cell-free assay | competition with immobilised ligand | 75 |
| PAK3 (Homo sapiens, UniProt O75914) | cell-free assay | competition with immobilised ligand | 96 |
| MAPK9 (Homo sapiens, UniProt P45984) | cell-free assay | competition with immobilised ligand | 89 |
| CDK19 (Homo sapiens, UniProt Q9BWU1) |  | competition binding | 84 |
| NEK4 (Homo sapiens, UniProt P51957) | cell-free assay | competition with immobilised ligand | 100 |
| Non-receptor tyrosine-protein kinase TYK2, JH1 (TYK2, Homo sapiens, UniProt P29597) | cell-free assay | competition with immobilised ligand | 56 |
| CSNK2A2 (Homo sapiens, UniProt P19784) | cell-free assay | competition with immobilised ligand | 100 |
| NUAK2 (Homo sapiens, UniProt Q9H093) | cell-free assay | competition with immobilised ligand | 100 |
| Ribosomal protein S6 kinase alpha-2, N-terminal kinase domain (RPS6KA2, Homo sapiens, UniProt Q15349) | cell-free assay | competition with immobilised ligand | 89 |
| pknB (Mycobacterium tuberculosis, UniProt P9WI81) | cell-free assay | competition with immobilised ligand | 97 |
| TIE1 (Homo sapiens, UniProt P35590) | cell-free assay | competition with immobilised ligand | 85 |

Other studies, line by line
Organism: Leishmania donovani
| SMILES | effect on | cell line | strain | concentration | notes | inhibition |
| --- | --- | --- | --- | --- | --- | --- |
| c1ccc(Oc2ccc(Nc3c4c(nc5ccccc35)CCC4)cc2)cc1 | parasite growth |  |  | 8 nM | intracellular, amastigote | 5% |
| CCCCCCCCCCCCCCCCOP(=O)([O-])OCC[N+](C)(C)C |  | THP-1 intracellular amastigotes | DD8 resistant line | 10 µM | resistance confirmation | 41% and 43% |
